# Published values of several laboratories.
# Numbered parts are unrelated; each lists some results of a single study. Substitutions count along the parent as printed.

# Series 1
# Target: PABPC1L2, full length, GST fusion (mouse, UniProt A0ABA7IW68)
# Technique: RNAcompete
# Molecule type: RNA
# Medium: in vitro
# Concentration: 20 nM
# Notes: 7-mer, probes averaged, single round
# Relative to: mean of 7-mers
# Direction: higher = stronger binding
# Residues (chain): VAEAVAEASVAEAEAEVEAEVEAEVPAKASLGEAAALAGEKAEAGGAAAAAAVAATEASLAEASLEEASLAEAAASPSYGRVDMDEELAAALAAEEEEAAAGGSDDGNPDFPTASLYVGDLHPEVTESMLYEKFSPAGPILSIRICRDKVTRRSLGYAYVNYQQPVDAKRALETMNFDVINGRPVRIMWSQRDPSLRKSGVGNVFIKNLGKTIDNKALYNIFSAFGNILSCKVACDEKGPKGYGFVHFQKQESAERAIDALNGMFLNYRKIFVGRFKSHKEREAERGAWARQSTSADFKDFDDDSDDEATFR
Sequence,7-mer Z-score
AGAUCGG,-0.104
AUACGUU,-0.213
AGCGAAC,-0.0536
CUAGUCU,-0.325
CAAAUAU,0.664
UAACGAC,0.0533
GUCAUUG,-0.34
AUGCGUG,-0.103

# Series 2
# Target: Fragile X messenger ribonucleoprotein 1, C-terminal low-complexity region (Fmr1, Mus musculus, UniProt P35922)
# Technique: RNA Bind-n-Seq
# Molecule type: RNA
# Medium: in vitro
# Concentration: 200 nM
# Notes: whole 134-nt RNA, ends assumed
# With: 150 mM LiCl
# Relative to: input library
# Direction: higher = stronger binding
# Library: 7-deaza-guanosine replaces G
# Constant ends, left off below: GGGAGUUCUACAGUCCGACGAUC … UGGAAUUCUCGGGUGUCAAGG
Sequence,log2 enrichment
GUCCUGUGCUACACAUCGUAUGUACCGAAUCGGGUUUUUGGGUUUGGGAAAAAAAGGGAAAGUAUUAUGUUACGCCGUUCGGAUCUGCAC,-2.04
UCCUGUGCUACACAUCGUAUGUACCGAAUCGGAAAAAAGGGAAAAAAGGAAAAAAGGGGAAAGUAUUAUGUUACGCCGUUCGGAUCUGCA,-1.3
GGACAAGAAUCCUUCAAGAAACAGGAAAAAACUCCUAAAACACCAAAAGGACCUAGUUCUGUAGAAGACAUUAAAGCAAAAAUGCAAGCA,0.878
UCAAGUCCUGUGCUACACAUCGUAUGUACCGAAUCGGGUUUGGGAGGGAAAGGGAAAGUAUUAUGUUACGCCGUUCGGAUCUGCACUUCC,-1.46
UUGCGGCAGCCGCCCCCUUCUGCGCGGUCACGCCGAGCCAGCGCCUGGGCCUGGAACCGGGCCGUAGCCCCCCCAGUUUCGCCCACCACC,0.617
UGGCAUGGAUCCAGUGGGCUGAGACCACCCUCAUUCAGCGGGAUCAGGAGCCAAUCCCGCAGAACAUUGACCGAGUUAAAGCCCUUAUCG,-2.67
UGGCCCUGGUGGCAUGCGGGGAGGAAGAGGUGGCCUCAUGGAUCGUGGUGGUCCCGGUGGAAUGUUCAUAGGUGGCCGUGGUGGAGACAG,-0.818
GCAGGAAGUAAAAACAAAGGGAAAUGCUUCGGAUAGUGGCAGGGGUGGGGGUUGCUAAGGAAAGGGUGGGAUGGGAGUGGGUAAAGAGUU,1.14

# Series 3
# Target: TAR DNA-binding protein 43, full length, His tag (TARDBP, Homo sapiens, UniProt Q13148, residues 1-414)
# Technique: RNA Bind-n-Seq
# Molecule type: RNA
# Medium: in vitro
# Concentration: 20 nM
# Notes: 6-mer, flanks averaged, single round
# With: 150 mM KCl
# Relative to: input library
# Direction: higher = stronger binding
Sequence,6-mer enrichment (R)
CCCUAC,0.623
GCGGCC,1.49
GGCGUU,1.3
GAAACC,0.663
CGAGGA,1.49
GGAUUU,0.787
GCGCGA,1.55
CGGAAA,0.856

# Mixed results
# Starting sequence: PafA, mature enzyme, eGFP fusion (Elizabethkingia meningoseptica, UniProt Q9KJX5); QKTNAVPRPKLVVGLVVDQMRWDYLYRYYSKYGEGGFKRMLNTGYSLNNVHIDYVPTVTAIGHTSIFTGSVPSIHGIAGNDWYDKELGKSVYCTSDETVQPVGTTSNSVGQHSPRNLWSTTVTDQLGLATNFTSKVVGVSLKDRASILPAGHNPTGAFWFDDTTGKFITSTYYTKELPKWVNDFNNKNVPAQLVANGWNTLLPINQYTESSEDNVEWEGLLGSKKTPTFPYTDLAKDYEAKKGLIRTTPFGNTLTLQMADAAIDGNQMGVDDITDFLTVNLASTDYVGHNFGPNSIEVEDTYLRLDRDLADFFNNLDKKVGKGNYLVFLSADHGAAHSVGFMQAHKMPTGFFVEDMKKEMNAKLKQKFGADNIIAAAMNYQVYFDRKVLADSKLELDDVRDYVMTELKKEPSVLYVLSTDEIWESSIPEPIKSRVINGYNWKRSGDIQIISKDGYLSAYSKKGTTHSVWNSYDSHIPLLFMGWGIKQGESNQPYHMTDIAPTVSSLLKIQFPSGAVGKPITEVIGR
Change,target,test,test system,setting,scale,measurement,result
N290G,"vanadate, free oxyanion",microfluidic competitive inhibition,"in vitro, cell-free expressed","not given, derived from inhibition constants, unchanged parent 676 nM",lower = stronger binding,oxyanion analog dissociation constant,500 nM

# A few entries again (series 3):
Sequence,6-mer enrichment (R)
GGCGUU,1.3
GCGCGA,1.55
